Results from different studies.
Each line is one published result; not all experiments were run side by side.

SMILES | tested on | assay | system | conditions | scale | measurement | result
CCn1cc(-c2cc(Cn3ccoc3=N)cc3c2CCN([C@@H](C)c2cc(OC)ccn2)C3=O)c(C(F)(F)F)n1 | ZR-75-30 | cell growth, inhibitor |  | 120 h |  | EC50 | 0.00578 µM
O=C(O)c1cc(=O)[nH]c(=O)n1[C@@H]1O[C@H](COP(=O)(O)O)[C@@H](O)[C@H]1O |  | binding, MIDAS equilibrium dialysis LC-MS | A2AR-BRIL thermostabilized | concentration not given | relative to: no-protein control | log2 fold change | -0.181
COc1cnc2cccc(N3CCc4c(cc(Cn5ccnc5C)cc4-c4cn(C)nc4C(F)(F)F)C3=O)c2c1 | HEL 92.1.7 | cell growth |  | 120 h |  | EC50 | > 30 µM
Cn1cc(-c2ccc(-c3cncc(Cl)c3N3CCC4(CCNC4=O)CC3)cc2)cn1 | COLO 205 | gene expression, microarray, item: SLC9A1 mRNA |  | concentration not given, 6 h | relative to: untreated cells | log2 fold change | -1.34
O=C(O)CNC(=O)Cc1ccccc1 |  |  | ventricular cardiomyocytes, C57BL/6 mouse | dose not given, 0.052 s |  | sarcomere length | 1.72 µm
O=C(O)[C@H](O)[C@@H](O)[C@H](O)[C@H](O)CO |  | binding, MIDAS equilibrium dialysis LC-MS | A2AR-BRIL thermostabilized | concentration not given | relative to: no-protein control | log2 fold change | -0.105
CSc1cc(Oc2ccnc3[nH]c(=O)cnc23)ccc1NC(=O)Nc1cc(C(C)(C)C)nn1-c1ccccc1 | patient-derived cell line | RPPA, item: phosphorylated Rb | human | 1 µM, 4 h | relative to: DMSO | phospho ratio | 0.6
O=c1[nH]c(=O)c2ncn([C@@H]3O[C@H](COP(=O)(O)O)[C@@H](O)[C@H]3O)c2[nH]1 |  | binding, MIDAS equilibrium dialysis LC-MS | A2AR-BRIL thermostabilized | concentration not given | relative to: no-protein control | log2 fold change | -0.134
CCn1cc(-c2cc(Cn3ccnc3)cc3c2CCN([C@H](c2cc(OC)ccn2)C2CC2)C3=O)c(C(F)(F)F)n1 | HEL 92.1.7 | cell growth |  | 120 h |  | EC50 | > 30 µM

Excerpt of the above:
SMILES | tested on | assay | system | conditions | scale | measurement | result
Cn1cc(-c2ccc(-c3cncc(Cl)c3N3CCC4(CCNC4=O)CC3)cc2)cn1 | COLO 205 | gene expression, microarray, item: SLC9A1 mRNA |  | concentration not given, 6 h | relative to: untreated cells | log2 fold change | -1.34
